# Results collected from several papers.
# Chains of the proteins cited; added tags and fusions are not shown. Residues count along the entry.
# UniProt P03372, whole entry: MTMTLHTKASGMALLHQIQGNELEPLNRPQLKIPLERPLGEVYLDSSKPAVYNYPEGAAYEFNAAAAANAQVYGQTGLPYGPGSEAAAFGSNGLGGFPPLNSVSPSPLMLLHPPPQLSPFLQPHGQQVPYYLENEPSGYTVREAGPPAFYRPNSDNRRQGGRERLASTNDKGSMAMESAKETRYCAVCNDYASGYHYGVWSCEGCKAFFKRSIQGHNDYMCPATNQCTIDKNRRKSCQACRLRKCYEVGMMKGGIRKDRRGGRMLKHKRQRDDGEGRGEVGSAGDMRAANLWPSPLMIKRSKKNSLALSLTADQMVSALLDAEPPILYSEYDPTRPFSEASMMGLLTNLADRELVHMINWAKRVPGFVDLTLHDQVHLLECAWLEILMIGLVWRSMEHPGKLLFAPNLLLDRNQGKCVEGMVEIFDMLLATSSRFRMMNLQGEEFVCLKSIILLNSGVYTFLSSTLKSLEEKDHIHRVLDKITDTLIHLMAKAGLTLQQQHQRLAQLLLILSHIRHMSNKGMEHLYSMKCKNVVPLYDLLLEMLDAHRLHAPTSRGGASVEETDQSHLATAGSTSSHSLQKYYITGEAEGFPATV
# UniProt B2RXH2, whole entry: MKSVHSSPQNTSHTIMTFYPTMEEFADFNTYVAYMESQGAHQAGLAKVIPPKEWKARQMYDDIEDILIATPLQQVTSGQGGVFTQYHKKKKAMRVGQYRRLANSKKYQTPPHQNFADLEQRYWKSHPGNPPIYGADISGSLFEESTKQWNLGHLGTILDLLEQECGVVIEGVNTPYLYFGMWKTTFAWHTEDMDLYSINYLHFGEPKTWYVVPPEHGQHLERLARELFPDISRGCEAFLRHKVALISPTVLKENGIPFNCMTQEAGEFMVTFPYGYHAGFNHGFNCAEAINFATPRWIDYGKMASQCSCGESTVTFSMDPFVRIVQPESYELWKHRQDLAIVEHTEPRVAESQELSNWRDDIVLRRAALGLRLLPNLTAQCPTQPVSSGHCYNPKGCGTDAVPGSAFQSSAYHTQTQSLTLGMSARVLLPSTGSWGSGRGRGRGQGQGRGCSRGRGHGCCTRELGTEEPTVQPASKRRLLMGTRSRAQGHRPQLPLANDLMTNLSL
# UniProt P37231, whole entry, looked up: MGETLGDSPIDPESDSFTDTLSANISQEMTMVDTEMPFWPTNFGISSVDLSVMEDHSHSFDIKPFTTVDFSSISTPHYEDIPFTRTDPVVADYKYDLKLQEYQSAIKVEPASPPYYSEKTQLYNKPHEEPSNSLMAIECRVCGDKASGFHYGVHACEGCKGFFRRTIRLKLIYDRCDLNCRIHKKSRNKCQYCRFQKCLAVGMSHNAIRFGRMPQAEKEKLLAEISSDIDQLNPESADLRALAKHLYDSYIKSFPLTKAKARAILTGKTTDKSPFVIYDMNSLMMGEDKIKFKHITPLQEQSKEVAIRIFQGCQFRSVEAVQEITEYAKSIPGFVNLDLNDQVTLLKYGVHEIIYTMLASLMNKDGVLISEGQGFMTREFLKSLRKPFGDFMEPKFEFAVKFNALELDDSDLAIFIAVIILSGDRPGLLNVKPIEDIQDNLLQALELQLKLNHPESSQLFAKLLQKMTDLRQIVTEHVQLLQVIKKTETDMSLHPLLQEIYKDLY
# UniProt P05067, whole entry, looked up: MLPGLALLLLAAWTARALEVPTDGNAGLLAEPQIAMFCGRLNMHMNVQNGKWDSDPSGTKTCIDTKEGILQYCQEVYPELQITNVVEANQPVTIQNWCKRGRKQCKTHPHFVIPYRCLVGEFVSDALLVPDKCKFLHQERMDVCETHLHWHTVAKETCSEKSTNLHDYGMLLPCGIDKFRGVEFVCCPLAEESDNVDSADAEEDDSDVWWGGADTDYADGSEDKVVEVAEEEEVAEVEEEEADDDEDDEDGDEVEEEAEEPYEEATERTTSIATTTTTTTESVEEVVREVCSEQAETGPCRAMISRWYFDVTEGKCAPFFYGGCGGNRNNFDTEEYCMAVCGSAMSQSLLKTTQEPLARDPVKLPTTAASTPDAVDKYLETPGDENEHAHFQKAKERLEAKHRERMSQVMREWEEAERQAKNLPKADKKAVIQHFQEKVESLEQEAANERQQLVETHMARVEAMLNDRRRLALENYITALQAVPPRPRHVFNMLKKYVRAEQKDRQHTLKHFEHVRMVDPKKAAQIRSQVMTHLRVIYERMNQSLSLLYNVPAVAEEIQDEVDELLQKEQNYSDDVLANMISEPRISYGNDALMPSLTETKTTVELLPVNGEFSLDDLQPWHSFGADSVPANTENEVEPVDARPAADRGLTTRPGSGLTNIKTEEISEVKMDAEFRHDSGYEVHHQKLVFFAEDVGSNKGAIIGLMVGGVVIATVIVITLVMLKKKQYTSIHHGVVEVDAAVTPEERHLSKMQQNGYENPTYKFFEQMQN
# UniProt Q9H3R0, whole entry: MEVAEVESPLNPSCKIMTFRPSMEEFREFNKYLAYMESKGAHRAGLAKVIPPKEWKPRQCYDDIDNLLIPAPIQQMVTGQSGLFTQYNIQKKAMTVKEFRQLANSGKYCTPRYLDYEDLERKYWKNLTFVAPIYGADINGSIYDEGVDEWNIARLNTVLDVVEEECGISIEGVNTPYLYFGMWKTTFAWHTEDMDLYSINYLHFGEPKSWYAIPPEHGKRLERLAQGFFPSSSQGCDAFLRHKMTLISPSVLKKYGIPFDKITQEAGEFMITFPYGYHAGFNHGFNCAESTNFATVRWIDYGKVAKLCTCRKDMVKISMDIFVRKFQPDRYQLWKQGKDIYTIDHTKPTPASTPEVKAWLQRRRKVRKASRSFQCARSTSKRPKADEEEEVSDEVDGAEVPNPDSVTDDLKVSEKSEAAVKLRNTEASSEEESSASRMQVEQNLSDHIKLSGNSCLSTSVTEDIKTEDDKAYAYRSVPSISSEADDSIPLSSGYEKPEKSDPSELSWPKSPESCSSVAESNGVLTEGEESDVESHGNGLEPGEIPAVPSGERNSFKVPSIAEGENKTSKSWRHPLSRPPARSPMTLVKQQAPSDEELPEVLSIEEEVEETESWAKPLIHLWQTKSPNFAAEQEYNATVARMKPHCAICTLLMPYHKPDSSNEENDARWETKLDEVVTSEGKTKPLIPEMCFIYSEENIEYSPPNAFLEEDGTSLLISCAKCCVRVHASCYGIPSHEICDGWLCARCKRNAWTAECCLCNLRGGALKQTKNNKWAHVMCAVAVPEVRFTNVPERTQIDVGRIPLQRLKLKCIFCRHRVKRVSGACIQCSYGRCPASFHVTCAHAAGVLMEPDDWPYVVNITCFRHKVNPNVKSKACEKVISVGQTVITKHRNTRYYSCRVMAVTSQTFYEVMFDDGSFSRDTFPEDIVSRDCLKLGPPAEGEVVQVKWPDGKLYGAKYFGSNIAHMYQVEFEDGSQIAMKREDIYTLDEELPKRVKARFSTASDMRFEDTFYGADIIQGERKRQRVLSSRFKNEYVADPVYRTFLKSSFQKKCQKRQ
# UniProt P14902, whole entry: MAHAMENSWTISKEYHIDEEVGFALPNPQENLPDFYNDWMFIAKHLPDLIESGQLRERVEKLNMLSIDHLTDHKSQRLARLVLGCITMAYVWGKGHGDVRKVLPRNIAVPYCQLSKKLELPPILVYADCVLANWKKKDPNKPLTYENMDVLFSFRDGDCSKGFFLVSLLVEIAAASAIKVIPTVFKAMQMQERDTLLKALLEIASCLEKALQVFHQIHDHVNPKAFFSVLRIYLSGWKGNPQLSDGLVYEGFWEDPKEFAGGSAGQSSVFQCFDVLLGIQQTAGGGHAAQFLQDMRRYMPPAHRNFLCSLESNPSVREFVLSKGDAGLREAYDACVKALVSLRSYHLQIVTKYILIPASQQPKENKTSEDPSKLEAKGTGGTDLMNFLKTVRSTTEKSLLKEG
# UniProt P22455, 22-802 limits assumed: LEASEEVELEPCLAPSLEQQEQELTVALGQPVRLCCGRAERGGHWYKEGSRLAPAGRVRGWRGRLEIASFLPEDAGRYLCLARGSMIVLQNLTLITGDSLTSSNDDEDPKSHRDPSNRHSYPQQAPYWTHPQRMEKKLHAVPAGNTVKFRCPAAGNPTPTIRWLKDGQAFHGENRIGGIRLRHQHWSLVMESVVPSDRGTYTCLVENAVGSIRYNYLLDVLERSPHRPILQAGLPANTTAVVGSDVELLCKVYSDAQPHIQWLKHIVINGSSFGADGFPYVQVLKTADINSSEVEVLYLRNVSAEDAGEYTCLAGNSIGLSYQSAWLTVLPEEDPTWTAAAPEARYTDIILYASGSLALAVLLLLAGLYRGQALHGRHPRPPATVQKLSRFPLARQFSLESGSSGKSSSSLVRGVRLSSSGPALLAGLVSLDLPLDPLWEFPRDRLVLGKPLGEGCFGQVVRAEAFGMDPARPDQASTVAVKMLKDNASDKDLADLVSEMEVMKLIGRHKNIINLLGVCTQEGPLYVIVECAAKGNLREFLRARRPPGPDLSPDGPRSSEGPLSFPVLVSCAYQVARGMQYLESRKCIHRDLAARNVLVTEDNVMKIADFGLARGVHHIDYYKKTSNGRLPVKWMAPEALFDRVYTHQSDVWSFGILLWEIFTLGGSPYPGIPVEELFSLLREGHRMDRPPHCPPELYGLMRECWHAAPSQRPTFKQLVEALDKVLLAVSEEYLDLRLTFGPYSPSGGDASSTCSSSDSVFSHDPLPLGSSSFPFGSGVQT
# UniProt P49720, whole entry, looked up: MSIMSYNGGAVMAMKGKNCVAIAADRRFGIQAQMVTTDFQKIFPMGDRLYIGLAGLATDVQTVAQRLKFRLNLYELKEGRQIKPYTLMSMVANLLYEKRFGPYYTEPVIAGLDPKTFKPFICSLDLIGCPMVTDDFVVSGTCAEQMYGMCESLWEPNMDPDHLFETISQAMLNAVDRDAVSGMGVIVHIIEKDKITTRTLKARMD
# UniProt Q15831, whole entry: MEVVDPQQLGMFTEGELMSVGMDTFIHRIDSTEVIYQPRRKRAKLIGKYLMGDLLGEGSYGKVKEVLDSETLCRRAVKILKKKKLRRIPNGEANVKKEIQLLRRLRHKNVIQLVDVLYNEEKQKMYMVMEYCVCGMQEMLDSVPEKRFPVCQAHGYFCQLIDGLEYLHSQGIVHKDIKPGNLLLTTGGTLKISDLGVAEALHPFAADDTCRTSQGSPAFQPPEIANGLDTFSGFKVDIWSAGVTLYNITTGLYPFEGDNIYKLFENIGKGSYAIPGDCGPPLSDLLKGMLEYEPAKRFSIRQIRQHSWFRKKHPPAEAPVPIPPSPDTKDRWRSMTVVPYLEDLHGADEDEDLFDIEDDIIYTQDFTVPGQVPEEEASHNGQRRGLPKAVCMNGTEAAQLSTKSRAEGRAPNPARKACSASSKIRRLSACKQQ
# UniProt P19784, whole entry: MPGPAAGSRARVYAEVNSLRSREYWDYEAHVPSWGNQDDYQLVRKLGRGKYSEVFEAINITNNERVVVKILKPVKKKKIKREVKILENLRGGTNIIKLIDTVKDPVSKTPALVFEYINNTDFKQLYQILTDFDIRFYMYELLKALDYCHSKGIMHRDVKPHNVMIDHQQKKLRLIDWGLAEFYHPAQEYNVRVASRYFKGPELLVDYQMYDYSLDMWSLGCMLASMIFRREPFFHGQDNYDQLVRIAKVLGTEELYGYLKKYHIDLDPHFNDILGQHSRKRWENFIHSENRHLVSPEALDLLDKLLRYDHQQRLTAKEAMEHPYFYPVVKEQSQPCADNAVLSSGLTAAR
# UniProt Q92630, whole entry: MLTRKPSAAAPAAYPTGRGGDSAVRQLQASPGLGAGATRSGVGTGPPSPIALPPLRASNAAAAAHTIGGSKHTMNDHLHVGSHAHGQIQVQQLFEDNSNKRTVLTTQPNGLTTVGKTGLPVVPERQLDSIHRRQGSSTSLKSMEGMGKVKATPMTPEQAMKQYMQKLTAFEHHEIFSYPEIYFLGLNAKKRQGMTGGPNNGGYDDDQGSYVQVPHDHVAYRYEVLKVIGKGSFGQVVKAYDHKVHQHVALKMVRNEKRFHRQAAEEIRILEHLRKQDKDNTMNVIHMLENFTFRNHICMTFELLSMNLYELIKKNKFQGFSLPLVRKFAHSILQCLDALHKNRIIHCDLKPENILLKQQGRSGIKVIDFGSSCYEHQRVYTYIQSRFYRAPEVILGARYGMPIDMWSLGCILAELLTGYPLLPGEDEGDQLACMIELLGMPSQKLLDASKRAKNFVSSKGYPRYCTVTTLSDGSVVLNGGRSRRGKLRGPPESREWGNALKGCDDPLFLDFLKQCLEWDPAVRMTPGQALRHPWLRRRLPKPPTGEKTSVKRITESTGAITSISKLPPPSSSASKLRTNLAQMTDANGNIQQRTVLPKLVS
# UniProt P00519, 242-493 Y253H limits assumed: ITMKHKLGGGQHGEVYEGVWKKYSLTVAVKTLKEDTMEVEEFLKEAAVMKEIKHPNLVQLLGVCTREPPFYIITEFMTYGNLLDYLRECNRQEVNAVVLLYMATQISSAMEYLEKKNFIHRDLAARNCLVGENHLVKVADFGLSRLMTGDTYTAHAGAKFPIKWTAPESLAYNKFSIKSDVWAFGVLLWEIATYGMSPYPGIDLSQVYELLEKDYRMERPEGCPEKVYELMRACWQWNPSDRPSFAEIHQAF
# Protocols differ between the studies behind these lines. “And” joins repeats or separate records; there may be more than shown. Numbers after ± are the reported error.
# ESR1: Estrogen receptor (ESR1, Homo sapiens, UniProt P03372)
SMILES,target,assay,test system,conditions,IC50
CC(C)NC(=O)CSc1nc2ccc(NC(=O)CSc3ccc(C(C)C)cc3)cc2s1,ESR1,"reporter gene, antagonist",HEC-1 transfected ERα luciferase reporter,,> 50000 nM
O=C(O)c1ccnc(C(=O)O)c1Nc1ccc(F)cc1F,"KDM4E (Homo sapiens, UniProt B2RXH2)","inhibitor, FDH-coupled spectrophotometry, refers to: formaldehyde",,,48000 nM
Cc1c(Cc2cccc(OC(C)(C)C(=O)O)c2)c2ccc(C(=O)N[C@H](c3cccc(C(C)(C)C)c3)C(F)(F)F)cc2n1CC(C)C,"PPARG (Homo sapiens, UniProt P37231)",TR-FRET competitive binding,,,2.93 ± 0.99 nM
N#Cc1ccc(S(=O)(=O)NC[C@H]2OC(O)[C@H](NC(=O)c3cccc(-c4ccccc4)c3)[C@@H](O)[C@@H]2O)cc1 (stereo partly shown),"Hexokinase-1 (Homo sapiens, UniProt P19367)","enzyme activity, inhibitor, G6PDH-coupled",,"with: ATP 1.5 mM, glucose 0.225 mM",4.95 ± 0.53 nM
COc1ccc2[nH]cc(/C=C/c3ccc(NS(C)(=O)=O)cc3)c2c1,"Amyloid-beta precursor protein, amyloid-beta peptide (APP, Homo sapiens, UniProt P05067)","Aβ42 oligomerisation, ELISA",,,5400 nM
CC(C)C[C@@H]1[C@H](C(=O)NCCO)C[C@@H]2CN(Cc3ccncc3)CC(=O)N21 (relative stereo),"KDM4C (Homo sapiens, UniProt Q9H3R0)","enzyme activity, inhibitor, AlphaLISA",,with: H3K9me3 nucleosome,6840 nM
Cc1ccc(C(=O)Nc2ccc(-c3nc4ccccc4[nH]3)cc2)cc1,"Moesin, with CD44 (Homo sapiens, UniProt P26038)","MSN-CD44 interaction, inhibitor, TR-FRET",,with: CD44,> 100000 nM
COC(=O)/C(=C/c1c[nH]c2ccc(F)cc12)c1ccc(NS(C)(=O)=O)cc1,"IDO1 (Homo sapiens, UniProt P14902)","enzyme activity, inhibitor",,,7800 nM
Cc1ccc(NC(=O)c2cccc(C(F)(F)F)c2)cc1N1Cc2cnc(Nc3cnn(C)c3)nc2N(C)C1=O,"FGFR4 (Homo sapiens, UniProt P22455)","enzyme activity, inhibitor, radiometric kinase",,,< 1 nM
CCCCN(CCc1ccc(Cl)c(Cl)c1)C[C@H](O)COc1ccc(NS(C)(=O)=O)cc1,"Glutamate NMDA receptor; Grin1/Grin2b (Grin1/Grin2b, Rattus norvegicus, UniProt P35439+Q00960)",whole-cell voltage clamp,HEK293 cells,pH 6.9,40 nM
CN1CCC[C@@H]1C(=O)N[C@@H](Cc1ccccc1)B(O)O,"Proteasome subunit beta type-3/PSMB7, trypsin-like site (Homo sapiens, UniProt P49720+Q99436)","β2c enzyme activity, inhibitor",,with: Ac-KQL-AMC,> 10000 nM
CC(C)CNC(=O)CSc1nc2ccc(NC(=O)CSc3cccc(C(F)(F)F)c3)cc2s1,ESR1,"reporter gene, antagonist",HEC-1 transfected ERα luciferase reporter,,> 50000 nM
Clc1ccc(C2(c3ccc(-c4ncnc5[nH]cnc45)cc3)CCNCC2)cc1,"LATS2 (Homo sapiens, UniProt Q9NRM7)","kinase activity, inhibitor, radiometric HotSpot",,with: ATP 10 µM,39 nM
CC(=NNC(=N)N)c1sc(-c2ccc(C#Cc3ccccc3)cc2)nc1C,"gyrB (Escherichia coli, UniProt P0AES6)","DNA supercoiling, inhibitor",,free compound,25.6 ± 1.54 µg/mL
O=C(CCl)Nc1ccc2c(Nc3ccccc3)ncnc2c1,"STK11 (Homo sapiens, UniProt Q15831)","enzyme activity, inhibitor",,,> 10000 nM
CC(=O)Nc1ccc2cnn(-c3cc(NC4CC4)n4ncc(C#N)c4n3)c2c1,"CSNK2A2 (Homo sapiens, UniProt P19784)","target engagement, NanoBRET",HEK293,,20 nM
CNCCCSc1c2cc(OC)ccc2nc2ccc(OC)cc12,"DYRK2 (Homo sapiens, UniProt Q92630)",inhibitor,,with: Woodtide peptide,120 nM
Cn1nc(-c2ccc(CC(=O)Nc3cc(C(C)(C)C)on3)cc2)c2c(N)ncnc21,"NTRK1 (Homo sapiens, UniProt P04629)",inhibitor,,,200 nM and 202 nM
COc1cc(Nc2ncnc(-c3cccnc3Nc3cc(NC(=O)c4cccc(C(F)(F)F)c4)ccc3C)n2)cc(OC)c1OC,"ABL1 (Homo sapiens, UniProt P00519, Y253H)",enzyme activity,,kinase domain,25 ± 8 nM

# Excerpt of the above:
SMILES,target,assay,test system,conditions,IC50
CN1CCC[C@@H]1C(=O)N[C@@H](Cc1ccccc1)B(O)O,"Proteasome subunit beta type-3/PSMB7, trypsin-like site (Homo sapiens, UniProt P49720+Q99436)","β2c enzyme activity, inhibitor",,with: Ac-KQL-AMC,> 10000 nM
